Measured values gathered from unrelated publications.
Cell line: SNB-19

Compound	test	setting	scale	endpoint	result
O=C1NC(c2ccccc2)(c2ccccc2)C(=O)N1Cc1cn(-c2cc3ccccc3oc2=O)nn1		10 µM, CNS cancer cell line, NCI60		growth percentage	87.9%
Cc1n[nH]c2nc(-c3ccc(Cl)cc3)c3c(NC(=O)c4ccccc4)nnc-3n12	SRB	10 µM, NCI60 single-dose screen	relative to: untreated	cell growth	89.3%
O=C1NCCc2[nH]c(-c3ccncc3)cc21	MTS	NCI60 panel		IC50	> 10 µM
CCCCN1CCN(c2ccc3[nH]c(-c4ccc5[nH]c(-c6cc(OC)c(OC)c(OC)c6)nc5c4)nc3c2)CC1	SRB	10 µM, 48 h		growth percent	71.9%
C#C[C@@]1(O)[C@@H](CO)O[C@@H](n2ccc3c(N)ncnc32)[C@@H]1O	SRB	NCI-60 screen		TGI	6.6 µM
Cc1cc(=O)[nH]c(=O)n1Cc1cn(-c2c3ccccc3nc3ccccc23)nn1		10 µM, CNS cancer cell line, NCI60		growth percentage	87.3%
CCCCN1CCN(c2ccc3[nH]c(-c4ccc5[nH]c(-c6ccc(C(F)(F)F)cc6)nc5c4)nc3c2)CC1	SRB	10 µM, 48 h		growth percent	-91.4%
Cc1cc(=O)[nH]n1-c1nc(-c2ccc(Cl)cc2)c2c(NC(=O)c3ccccc3)nnc-2[nH]1	SRB	10 µM, NCI60 single-dose screen	relative to: untreated	cell growth	91.6%
Cn1cncc1C1=CN(c2ncnc3[nH]cnc23)CCS1		CNS cancer		TGI	200 µM
CCCN1CCN(c2ccc3[nH]c(-c4ccc5[nH]c(-c6ccc(OCC)c(OCC)c6)nc5c4)nc3c2)CC1	SRB	10 µM, 48 h		growth percent	-39.7%
NNc1nc(-c2ccc(Cl)cc2)c2c(NC(=O)c3ccccc3)nnc-2[nH]1	SRB	10 µM, NCI60 single-dose screen	relative to: untreated	cell growth	93.8%
CCCCN1CCN(c2ccc3[nH]c(-c4ccc5[nH]c(-c6ccc(OCC)c(OCC)c6)nc5c4)nc3c2)CC1	SRB	10 µM, 48 h		growth percent	-28.8%
O=C(Nc1nnc2[nH]c(=S)[nH]c(-c3ccc(Cl)cc3)c1-2)c1ccccc1	SRB	10 µM, NCI60 single-dose screen	relative to: untreated	cell growth	95.3%
C#C[C@@]1(O)[C@@H](CO)O[C@@H](n2cc(F)c3c(N)ncnc32)[C@@H]1O	SRB	NCI-60 screen		TGI	13.7 µM
CSc1nc(-c2ccc(Cl)cc2)c2c(NC(=O)c3ccccc3)nnc-2[nH]1	SRB	10 µM, NCI60 single-dose screen	relative to: untreated	cell growth	85.2%
O=C1NC(c2ccccc2)(c2ccccc2)C(=O)N1Cc1cn(-c2c3ccccc3nc3ccccc23)nn1		10 µM, CNS cancer cell line, NCI60		growth percentage	89.4%
O=C(Nc1nnc2n3c(Cc4ccccc4)n[nH]c3nc(-c3ccc(Cl)cc3)c1-2)c1ccccc1	SRB	10 µM, NCI60 single-dose screen	relative to: untreated	cell growth	92.1%
CCCN1CCN(c2ccc3nc(-c4ccc5nc(-c6cc(OC)ccc6OC)[nH]c5c4)[nH]c3c2)CC1	SRB	10 µM, 48 h		growth percent	115%

A few entries again:
Compound	test	setting	scale	endpoint	result
O=C1NCCc2[nH]c(-c3ccncc3)cc21	MTS	NCI60 panel		IC50	> 10 µM
CCCCN1CCN(c2ccc3[nH]c(-c4ccc5[nH]c(-c6ccc(C(F)(F)F)cc6)nc5c4)nc3c2)CC1	SRB	10 µM, 48 h		growth percent	-91.4%
